Measured values gathered from unrelated publications.
A part holds a random share of what one study measured.

Set 1
Target: RING finger protein unkempt homolog, zinc fingers 1-6, SBP tag (UNK, Homo sapiens, UniProt Q9C0B0, residues 30-357)
Sequence of UniProt Q9C0B0 (30-357, looked up): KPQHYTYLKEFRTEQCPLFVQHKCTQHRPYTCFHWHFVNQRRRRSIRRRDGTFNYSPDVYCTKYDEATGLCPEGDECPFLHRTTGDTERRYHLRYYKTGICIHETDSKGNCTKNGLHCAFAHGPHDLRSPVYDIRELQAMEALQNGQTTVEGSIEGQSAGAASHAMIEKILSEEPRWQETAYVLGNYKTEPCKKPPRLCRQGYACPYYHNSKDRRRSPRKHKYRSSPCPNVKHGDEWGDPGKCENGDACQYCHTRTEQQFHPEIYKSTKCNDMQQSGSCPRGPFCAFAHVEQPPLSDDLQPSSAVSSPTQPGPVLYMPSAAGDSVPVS
Method: RNA Bind-n-Seq
Molecule type: RNA
Medium: in vitro
Concentration: 100 nM
Notes: RNA with constant flanks, vertebrate orthologous sites, ends assumed
Reference: input RNA pool
Reading: higher = stronger binding
Constant ends, left off below: GGGAGUUCUACAGUCCGACGAUC … CAACAGAGGAUUGAGCAUCA
| Oligonucleotide | bound/input enrichment [ratio] |
| --- | --- |
| UUAGGAGUUUGGUUUGAGUGACAGCCCUUGAGAAGGUCACACAGCGAGCUUCCUUCUGUCUAGUUUACAGACAAUGUAAUAGCAAAGAUCUUGUGCCGCAAUACUGUUUUUACAUUCCCA | 0.412 |
| CCCUCGGGGCAGGGUGGGCCUGCCUCAGAGCGGCCAGCCAGCCUGUCAGCCAGACGGUUUUAGCUCCGUUUUUUUAAACAGUGCCCUUAUGAUUGUCCUGUACAUUCGCGGAGAUUUGGA | 0.342 |
| CAGCAUCCUUUCAUACCAUCCUGGGCCAGCACCAGGGUCGAUGUCUCAAUCCACCUAUGUUUAGAACAUUUUUUAAAUCGUUGUGUCUGAGCAUCUCAGAGUCAGGUGUGUCUUUGCAAA | 0.631 |
| UAUCUUUAGGAUGAAGCUCUUACAUCAGGUGUCACAAGUCUGGAGAACAGAUGGGUUGACUAGUUGUAUUUAUAAAUUACUCUCUGUGGAUUAUAAUCCUUUAUAUACCAACAUCACGGU | 0.539 |
| CACAUCUGGUGAUAUUUGGCCUGGCCUUUCAGCUUAUGAUAAUAGUCCUAGAUCACCCCAUAGUCCUUCACCUAUUGCUACACCACCUAGUCAGAGUUCAUCUUGCUCUGAUGCUCCCAU | 1.4 |
| AACAGCUUUUGCUUCAUUAAGAAGAGUAAAAACUAGUCCCCCCAACUUAAAAUGCCUAAAGAGCUAUUUUAAACAUCAAAAUGCUUCAAUUUUGUAAAUCACCUGACGUCACUACACACA | 0.588 |
| UCCUCAACGUGUUCGAGCUUGUGAUCCUUCAAAGAUGGGUUAUGCGUUAAUUCUAGGUACUAGAAAUGUUUACUUCUCUCUUUCCACUGAUCAGAGAAACAGGCAUCAAAAACAGAAAUA | 0.442 |
| UCCUUUCACACUGUCCCCAACAGAGCUGAUAAACUUAGUUCUUUCACUGAAGACUCGCAACUGAGACAAUUUUUUAAAUUGCUAUACAAAGAGAGAUGUGACUAAAACACAAUCUCAAAA | 0.408 |
| AGUACUUAAGCCAAGAGUGAUUCUAAAAUACUAUUUAUUUGUGUUCUGUACGUUGGUACAUAACACCAUCAACCUCACACUGUUCUUGAAUUUUUAUUUUUUUGAAGGUUGGGGGUGAGU | 0.418 |
| AGUCAUGGAGAAGAAGAUACUAAAAAUAAUCUCAUGGCAUUGAUAUUAAUUUAUUUUUAUUAGUUUUCAAAAGUCAGGGUUCUUGUUUAUAAACAGCAGGUACUGACUCUUAAGGCAAAA | 0.441 |
| CAGCUGAUUCACUUAUUGGGAGAGCUGCACACAUAGCUGUUCUGGAUUCAGAAAUAUUUUUAGAGAAAUUCUUUCUGGUUGCUGCCCUCAAAUAUUUCCAAUAGGAUAAAAACAUUGUUA | 1.13 |

Set 2
Target: Histone acetyltransferase KAT6A, winged helix 1, GST fusion (KAT6A, Homo sapiens, UniProt Q92794, residues 1-85)
Method: protein binding microarray
Molecule type: double-stranded DNA, one strand shown
Medium: in vitro
Concentration: not given
Notes: 8-mer, flanks averaged, mean of 2 arrays, mostly near background
Reference: not given
Reading: higher = stronger binding
Target sequence (chain): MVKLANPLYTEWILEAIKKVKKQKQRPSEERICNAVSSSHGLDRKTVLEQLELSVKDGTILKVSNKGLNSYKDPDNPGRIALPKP
| Oligonucleotide | E-score |
| --- | --- |
| ATCATGAG | -0.0915 |
| ACCGAGTA | 0.111 |
| CTTCTCTA | -0.112 |
| CATCGAAG | 0.0435 |
| AGCGGCCA | 0.22 |
| ATAGTAAG | -0.0762 |
| GAGTATCC | -0.0394 |
| CGTATTAG | 0.077 |
| AGACTAAA | -0.0587 |
| ATGCTAAG | -0.0379 |
| GTTGCACA | -0.165 |
| AACTGGGG | -0.287 |
| CCCAAAAG | -0.161 |
| CTAGCTCC | 0.0581 |
| GCGCATAC | 0.376 |
| AGGTAATC | -0.0751 |
| ATCGTGAA | -0.197 |
| ATCTAGAC | -0.0773 |
| GTGAACGA | -0.214 |
| ACTGAGAT | -0.127 |
| AGATATTC | -0.335 |

Set 3
Target: RNA binding protein fox-1 homolog 2, RRM domain, GST-SBP tag (RBFOX2, Homo sapiens, UniProt O43251-10, residues 100-194)
Method: RNA Bind-n-Seq
Molecule type: RNA
Medium: in vitro
Concentration: 365 nM
Notes: natural RNA segment, single round, ends assumed
Reference: no-protein control
Reading: higher = stronger binding
Constant ends, left off below: GGGAGUUCUACAGUCCGACGAUC … UGGAAUUCUCGGGUGCCAA
Target sequence (chain): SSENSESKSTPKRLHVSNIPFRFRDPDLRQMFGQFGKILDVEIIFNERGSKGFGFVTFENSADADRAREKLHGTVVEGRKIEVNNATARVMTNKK
| Oligonucleotide | RBNS enrichment (R) |
| --- | --- |
| UGUGUUUGUAGUGUGAGCUCUUGUUUUUGAAAUGAUUGCUUCAGUCUUUGCCUUUGUUUGCACUGUGUGUUCAGUGAAAACUAGAGAAACACAAUAAGCAAAUCACAUGA | 0.469 |
| GAAUUUCAGAGAUUCUUAGACUGGCUGCCAAAGGAUGAAGCUAGUGAAGGAGAAAAAGCUUAAAUUCCAUCUUGAGCUCUUGGAUUGUGAUAAUACAAUGAUUUCAUUAA | 0.724 |
| GUACUUCCACAAAGCAUCCCUUGGUUUUAUUCCAGUUUGUUGCUUUACGUAUUUGUAAGUAUUAAACACCAAUUACUAAAUUAUCUGUAAUUCAGAUUUGUCAUUUGGAG | 0.315 |
| CGUCGAGUGCCAUCUUAUUUAUUUCUGGUUAAGAUGGGGCGGAGGAUGGGGGGGACGCUGCUGGUAUUCGGGUUGGGCGUUUCCCAAUAAACCACCAAUCUUCAUAUUGU | 0.399 |
| GAUUUGUGAAUAUUUUUCAUUCCAUCAACAAGGGAGUUUAAAUACUAUAUGUGAGACUGACAAAAACCUUAAUGUAAUUUACUUAUAAUGCCAGAAGGAAAACACUAUUU | 0.962 |
| GCUCUCCAAUGAGAGCCUGACUGGCUUCUAGAGCAGGCUGUCACAGAAGGGGAGGUAGGGUCGACUGUGAGUGCAUGCCAUCUUUGUCAGACUGGUGACAGAGUUCCUGU | 3.88 |
| UGGUUAAGGAACGUUCCUGCAAACAUUCAAGUAGACCUUCUAUAACAGACUGCAGCGUGCAUGGCCUCUACCCACAAGAGAUGCACUGCAGGAGGCCGGCCCUGUUCUCU | 0.895 |
| GAGCAUCAGGGUGGGGGUCUCCUCCGCAGCAAGGUUGAUGACACAUUUACAGUGCUUGCUCUGAGCAGCUCAGAAGACAGUAGAGAAUGCGAGAGGACCUUCUGACGGUG | 0.815 |
| ACAGUCUGUCUAUGUGUGCAUGUCAGAGGGAGAGAAGAGACAGACUGUAGGAGUGGGUCUCACAGUUAUCCAGCCCUGUGAUACUUGGGUUGACCCCAUGUUUCAGAUCC | 24.1 |
| AAAGUCACCUUGUUUCCUACAUGAUUUUAGUCAUACCCAAACGUCCUCAGAAUCCCUACAUCCUGCUUAGAACUGUGGCCGGCCUAAUCUGUCAAGAGGCUUGGCUCUUC | 0.489 |
| UUUCUUGGCUGCAUGAAGGUUUUCUUUAGAAUCAGAAUUGUAGCCAGUUUCUUUGGCCAGAAGGAUGAAUACUUGGAUAUUACUGAAAGGGAGGGGUGGAGAUGGGUGUG | 0.904 |
| UGGUUAUCAGUUAAAUUGAGGUGGACAUUAUUUCCCCAAUUUCACAACAGGAUUCACAUUGUUAAUUUAUAAAUCUAGACUUGGAGAAUUAAGGACUGAGAAAUGACCAU | 0.442 |

Set 4
Target: Sal-like protein 4, full length isoform B (SALL4, Homo sapiens, UniProt Q9UJQ4-2, residues 1-616)
Method: universal PBM
Molecule type: double-stranded DNA, one strand shown
Medium: in vitro
Concentration: not given
Notes: 8-mer, flanks averaged, mean of replicates
Reading: higher = stronger binding
| Oligonucleotide | E-score |
| --- | --- |
| GTCCCCTA | -0.181 |
| TCCCAGGA | -0.292 |
| CAGGGGGG | -0.39 |
| AGGTATGC | 0.156 |
| GAGCCTTA | -0.103 |
| CCCGAGGA | -0.219 |
| CAATGCTC | -0.00414 |
| GACTAACA | 0.0648 |
| GAGCCGCA | -0.262 |
| ATCTACCC | -0.0729 |
| CGTAAAAG | 0.144 |
| AACTTCTG | -0.00855 |
| GCGCCCAC | -0.289 |
| CGCGTATA | 0.162 |
| AACTTACG | 0.111 |
| AGAGCGGG | -0.242 |
| CCAGCATC | -0.281 |
| GAGGAGAA | -0.062 |
| CACTGTAC | -0.125 |
| GCAAAAGC | 0.0711 |
| CAACCATA | 0.259 |
| GATAGGTA | 0.207 |
| CTCCGCTA | -0.176 |
| CCGATTTA | 0.119 |
| AGAATTTC | -0.0441 |

Excerpt of the above (set 3):
| Oligonucleotide | RBNS enrichment (R) |
| --- | --- |
| UUUCUUGGCUGCAUGAAGGUUUUCUUUAGAAUCAGAAUUGUAGCCAGUUUCUUUGGCCAGAAGGAUGAAUACUUGGAUAUUACUGAAAGGGAGGGGUGGAGAUGGGUGUG | 0.904 |
| GAAUUUCAGAGAUUCUUAGACUGGCUGCCAAAGGAUGAAGCUAGUGAAGGAGAAAAAGCUUAAAUUCCAUCUUGAGCUCUUGGAUUGUGAUAAUACAAUGAUUUCAUUAA | 0.724 |
| AAAGUCACCUUGUUUCCUACAUGAUUUUAGUCAUACCCAAACGUCCUCAGAAUCCCUACAUCCUGCUUAGAACUGUGGCCGGCCUAAUCUGUCAAGAGGCUUGGCUCUUC | 0.489 |
| UGGUUAUCAGUUAAAUUGAGGUGGACAUUAUUUCCCCAAUUUCACAACAGGAUUCACAUUGUUAAUUUAUAAAUCUAGACUUGGAGAAUUAAGGACUGAGAAAUGACCAU | 0.442 |
| GCUCUCCAAUGAGAGCCUGACUGGCUUCUAGAGCAGGCUGUCACAGAAGGGGAGGUAGGGUCGACUGUGAGUGCAUGCCAUCUUUGUCAGACUGGUGACAGAGUUCCUGU | 3.88 |
| UGGUUAAGGAACGUUCCUGCAAACAUUCAAGUAGACCUUCUAUAACAGACUGCAGCGUGCAUGGCCUCUACCCACAAGAGAUGCACUGCAGGAGGCCGGCCCUGUUCUCU | 0.895 |
| UGUGUUUGUAGUGUGAGCUCUUGUUUUUGAAAUGAUUGCUUCAGUCUUUGCCUUUGUUUGCACUGUGUGUUCAGUGAAAACUAGAGAAACACAAUAAGCAAAUCACAUGA | 0.469 |
| GAGCAUCAGGGUGGGGGUCUCCUCCGCAGCAAGGUUGAUGACACAUUUACAGUGCUUGCUCUGAGCAGCUCAGAAGACAGUAGAGAAUGCGAGAGGACCUUCUGACGGUG | 0.815 |
| GAUUUGUGAAUAUUUUUCAUUCCAUCAACAAGGGAGUUUAAAUACUAUAUGUGAGACUGACAAAAACCUUAAUGUAAUUUACUUAUAAUGCCAGAAGGAAAACACUAUUU | 0.962 |
| GUACUUCCACAAAGCAUCCCUUGGUUUUAUUCCAGUUUGUUGCUUUACGUAUUUGUAAGUAUUAAACACCAAUUACUAAAUUAUCUGUAAUUCAGAUUUGUCAUUUGGAG | 0.315 |
